Assay results gathered from unrelated publications.
Every numbered part comes from another study and shows a few of its results, in no order.

Set 1
Target: Sal-like protein 4, full length isoform A (SALL4, Homo sapiens, UniProt Q9UJQ4, residues 1-1053)
UniProt Q9UJQ4, sequence (whole entry, looked up): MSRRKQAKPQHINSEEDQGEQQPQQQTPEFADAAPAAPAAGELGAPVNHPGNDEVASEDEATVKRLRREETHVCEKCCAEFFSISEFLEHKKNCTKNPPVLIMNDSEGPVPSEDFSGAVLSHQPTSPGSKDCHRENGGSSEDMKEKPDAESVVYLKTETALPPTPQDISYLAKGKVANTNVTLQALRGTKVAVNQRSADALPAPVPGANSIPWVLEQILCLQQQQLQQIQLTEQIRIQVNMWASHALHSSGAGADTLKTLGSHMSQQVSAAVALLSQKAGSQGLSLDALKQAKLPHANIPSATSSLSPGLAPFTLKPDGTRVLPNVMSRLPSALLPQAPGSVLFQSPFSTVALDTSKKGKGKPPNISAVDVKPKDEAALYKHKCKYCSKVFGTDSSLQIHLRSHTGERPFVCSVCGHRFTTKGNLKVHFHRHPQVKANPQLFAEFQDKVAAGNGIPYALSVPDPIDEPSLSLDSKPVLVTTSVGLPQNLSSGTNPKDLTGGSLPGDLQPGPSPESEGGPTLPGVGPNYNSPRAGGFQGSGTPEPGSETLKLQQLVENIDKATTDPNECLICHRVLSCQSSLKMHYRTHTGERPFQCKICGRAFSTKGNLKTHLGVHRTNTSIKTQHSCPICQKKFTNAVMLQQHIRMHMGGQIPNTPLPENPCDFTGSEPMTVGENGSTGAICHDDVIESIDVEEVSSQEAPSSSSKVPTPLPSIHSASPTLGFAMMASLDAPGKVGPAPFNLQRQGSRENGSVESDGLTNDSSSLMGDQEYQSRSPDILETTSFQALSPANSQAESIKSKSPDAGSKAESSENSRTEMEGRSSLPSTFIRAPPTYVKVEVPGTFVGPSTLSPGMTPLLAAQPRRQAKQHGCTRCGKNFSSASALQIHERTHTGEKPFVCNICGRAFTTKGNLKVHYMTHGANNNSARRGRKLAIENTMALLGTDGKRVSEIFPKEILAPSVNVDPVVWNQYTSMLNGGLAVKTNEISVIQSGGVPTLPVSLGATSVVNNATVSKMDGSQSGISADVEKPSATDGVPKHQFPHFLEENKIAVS
Technique: universal PBM
Form: double-stranded DNA, one strand shown
Matrix: in vitro
Concentration: 600 nM
Notes: 8-mer, flanks averaged, mean of replicates
Reading: higher = stronger binding
Oligonucleotide | E-score
AATGGATG | 0.147
AGGCCAGC | -0.304
GATTCTAC | -0.046
CCTTGCGA | -0.189
GAAGTTAC | 0.0607
AAGCAAAG | 0.0717
ACTGTCAT | 0.132
GTACTAGA | 0.0835

Set 2
Target: RING finger protein unkempt homolog, zinc fingers 1-6, GST-SBP tag (UNK, Homo sapiens, UniProt Q9C0B0, residues 30-357)
UniProt Q9C0B0, sequence (30-357, looked up): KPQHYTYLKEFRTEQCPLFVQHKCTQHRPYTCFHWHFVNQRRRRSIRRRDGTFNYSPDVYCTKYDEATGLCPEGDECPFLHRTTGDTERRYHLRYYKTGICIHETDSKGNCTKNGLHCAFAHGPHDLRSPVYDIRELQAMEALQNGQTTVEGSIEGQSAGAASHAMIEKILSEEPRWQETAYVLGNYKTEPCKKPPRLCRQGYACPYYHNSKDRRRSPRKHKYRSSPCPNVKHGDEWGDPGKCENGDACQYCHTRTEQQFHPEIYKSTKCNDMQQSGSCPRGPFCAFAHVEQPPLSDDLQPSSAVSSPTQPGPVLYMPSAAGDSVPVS
Technique: RNA Bind-n-Seq
Form: RNA
Matrix: in vitro
Concentration: not given
Notes: RNA with constant flanks, ends assumed
Baseline: input RNA pool
Reading: higher = stronger binding
Oligonucleotide | bound/input enrichment
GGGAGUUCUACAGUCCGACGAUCGAAAGCACUACCCUAAGCCAUGAGGAUCUCCAUGCUUUGCUAACCAAGAUAACUGUUUUCUCUUUGCCGAAGUUUUGUUUUUGAAAUGUGUAUUUCUAAUUAUAUAAAAUAUUAAGAAUCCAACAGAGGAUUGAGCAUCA | 0.456 ratio
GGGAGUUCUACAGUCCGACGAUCUGUUUAGAAGGAAUGAUUCUUGCAGCAAAAUCAGUUGAUGAAAGAAGAGAUUCUCAAAUGGCCGCCGACUCCUUCAAGUCUGGCUUUGAACCUCCAGGAGACUUUCCAUUUGAAGAUUACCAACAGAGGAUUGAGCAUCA | 0.19 ratio
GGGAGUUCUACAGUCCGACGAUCCAGUUGAAGACAGAGAAGGAUGAAAAGGAACUUUAUAAGGUACAUUUGAAGAAUACAGAAACCGAAAAUACCAAGCUUAUGUCAGAGGUCCAGACUUUAAAAAAUUUAGAUGGGAACAAACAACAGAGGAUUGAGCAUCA | 0.78 ratio
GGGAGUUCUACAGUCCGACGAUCUAGGAAUGCUCGGGCUAAAGGAAUGUCAUUUUACAAGUAUGUAAUGGAAAGUCGUGAUCCCCGUACAAAUGUGAUAUUAUUGGAGGAUACUGCUGCAGUCUUGGGAGUUAUAAUAGCAGCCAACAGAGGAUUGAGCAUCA | 0.631 ratio
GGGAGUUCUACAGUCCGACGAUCACUAACAGGCCAUUUAUUUCUCAGAAAAUCCAUUUUCCUGAUUUUUCUACCAGAGACAUACACCGGAAUUAUGUUGAUUGUGUGCGAUGGUUAGGCGAUUUGAUACUUUCUAAGAGUGGCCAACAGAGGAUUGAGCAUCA | 0.218 ratio

Set 3
Target: Interferon regulatory factor 7, full length, phosphomimetic (IRF7, Homo sapiens, UniProt Q92985, residues 1-503, S471D/S472D/S475D/S476D/S477D/S483D/S484D/S487D)
UniProt Q92985, sequence (whole entry, unmodified, looked up): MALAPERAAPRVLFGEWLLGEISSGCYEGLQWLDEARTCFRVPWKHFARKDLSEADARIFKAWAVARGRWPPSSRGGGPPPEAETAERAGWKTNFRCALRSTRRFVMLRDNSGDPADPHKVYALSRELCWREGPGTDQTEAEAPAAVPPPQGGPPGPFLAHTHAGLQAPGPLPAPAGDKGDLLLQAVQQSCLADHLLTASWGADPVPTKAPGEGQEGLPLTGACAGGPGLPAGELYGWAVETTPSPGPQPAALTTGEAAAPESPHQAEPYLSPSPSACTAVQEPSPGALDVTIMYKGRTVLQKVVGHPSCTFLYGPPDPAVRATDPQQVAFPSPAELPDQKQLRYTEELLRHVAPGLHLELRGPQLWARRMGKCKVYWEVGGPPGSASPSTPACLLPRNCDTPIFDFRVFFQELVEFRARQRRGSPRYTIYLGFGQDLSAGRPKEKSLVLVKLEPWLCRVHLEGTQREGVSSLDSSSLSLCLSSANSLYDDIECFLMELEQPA
Technique: protein-binding microarray
Form: double-stranded DNA, one strand shown
Matrix: in vitro
Concentration: 2200 nM top
Notes: 60-bp whole probe
Together with: salmon DNA 0.4 mg/ml
Baseline: random background probes
Reading: higher = stronger binding
Constant ends, left off below: GCCTAGCAC … GTCTTGATTCGCTTGACGCTGCTG
Oligonucleotide | fitted relative affinity [z-score]
GACGGTTTCGGGTATCGGCACGTGCTA | 5.81
TTGGGTATCGGGTTTCGGTTAGTGCTA | 3.59
TTAGGTATCCTCCTCCTTTAGTGCTAG | 1.28
GACGGCTTCCTTATCCTGACGTGCTAG | 0.977
GACGATTTCGGGACTGGAGAGGTGCTA | 1.03

Single results of other studies
Molecule | target | test | system | conditions | how to read | endpoint | result
PhoQ, residues 284 288 289 292 302 303 QWQEDG | PhoP, residues 12 14 15 18 19 NQFFI (Escherichia coli, UniProt P23836) | Sort-seq, item: YFP reporter | E. coli | PhoQ-PhoP variant library, together with: 10 µM Mg2+ | baseline: high Mg2+ state, higher = stronger signaling | fold induction | 2.43

Repeated from above (set 2):
Oligonucleotide | bound/input enrichment
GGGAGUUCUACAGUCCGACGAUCACUAACAGGCCAUUUAUUUCUCAGAAAAUCCAUUUUCCUGAUUUUUCUACCAGAGACAUACACCGGAAUUAUGUUGAUUGUGUGCGAUGGUUAGGCGAUUUGAUACUUUCUAAGAGUGGCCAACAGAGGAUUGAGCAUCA | 0.218 ratio
